Assay results collected from several papers.
Cell line: NCI-H23

Compound	assay	setting	scale	measurement	value
CCN(CC)c1ccc(C=NNC(=O)CSc2nc3ccccc3c(=O)n2Cc2ccc(S(N)(=O)=O)cc2)c(O)c1	NCI five-dose screen			TGI	> 100 µM
Cc1n(Cc2ccc3ccccc3c2)c2ccccc2[n+]1Cc1ccc2ccccc2c1.[Br-]	NCI60 five-dose screen			TGI	2.76 µM
COc1ccc(OC)c(-c2nc3ccc(-c4nc5ccc(N6CCN(C)CC6)cc5[nH]4)cc3[nH]2)c1	SRB	10 µM, 48 h		growth percent	102%
[Br-].c1ccc2cc(Cn3c[n+](Cc4ccc5ccccc5c4)c4ccccc43)ccc2c1	NCI60 five-dose screen			TGI	2.51 µM
C#C[C@@]1(O)[C@@H](CO)O[C@@H](n2ccc3c(N)ncnc32)[C@@H]1O	SRB	NCI-60 screen		TGI	4.32 µM
CCCc1n(Cc2ccc3ccccc3c2)c2ccccc2[n+]1Cc1ccc2ccccc2c1.[Br-]	NCI60 five-dose screen			TGI	1.6 µM
CCCCN1CCN(c2ccc3[nH]c(-c4ccc5[nH]c(-c6ccc(OCC)cc6)nc5c4)nc3c2)CC1	SRB	10 µM, 48 h		growth percent	64.1%
O=C(Nc1nnc2n3c(nc(-c4ccc(Cl)cc4)c1-2)SCC3=O)c1ccccc1	SRB	10 µM, NCI60 single-dose screen	relative to: untreated	cell growth	97.2%
CCCCN1CCN(c2ccc3[nH]c(-c4ccc5[nH]c(-c6cc(OC)c(OC)c(OC)c6)nc5c4)nc3c2)CC1	SRB	10 µM, 48 h		growth percent	82.9%
COC(=O)/C=C1\C(=O)C=C2C3CC4CC(CCC4(C)N21)C3(C)NC(C)=O (stereo not drawn)	cell growth, NCI screen			IC50	33.1 µM
COc1cnc2cccc(N3CCc4c(cc(Cn5ccnc5C)cc4-c4cn(C)nc4C(F)(F)F)C3=O)c2c1	cell growth, inhibitor	120 h		EC50	0.205 µM
Cc1cc(=O)[nH]c(=O)n1Cc1cn(-c2cc3ccccc3oc2=O)nn1	NCI60 single-dose screen	10 µM		growth percentage	94.4%
Cc1cc(C)n(C(=S)[S][Au][PH](CCCCCC[PH]([Au][S]C(=S)n2nc(C)cc2C)(c2ccccc2)c2ccccc2)(c2ccccc2)c2ccccc2)n1	cell growth, NCI-60 screen	non-small cell lung cancer		log10 TGI	> -4
CCCN1CCN(c2ccc3[nH]c(-c4ccc5[nH]c(-c6cc(OC)c(OC)c(OC)c6)nc5c4)nc3c2)CC1	SRB	10 µM, 48 h		growth percent	80.1%
O=C1NC(c2ccccc2)(c2ccccc2)C(=O)N1Cc1cn(-c2cc3ccccc3oc2=O)nn1	NCI60 single-dose screen	10 µM		growth percentage	88.4%
CCCCN1CCN(c2ccc3nc(-c4ccc5nc(-c6cc(OC)ccc6OC)[nH]c5c4)[nH]c3c2)CC1	SRB	10 µM, 48 h		growth percent	98%
Cc1cc(=O)[nH]n1-c1nc(-c2ccc(Cl)cc2)c2c(NC(=O)c3ccccc3)nnc-2[nH]1	SRB	10 µM, NCI60 single-dose screen	relative to: untreated	cell growth	101%
CCCN1CCN(c2ccc3[nH]c(-c4ccc5[nH]c(-c6ccc(C(F)(F)F)cc6)nc5c4)nc3c2)CC1	SRB	10 µM, 48 h		growth percent	-77.1%
NNc1nc(-c2ccc(Cl)cc2)c2c(NC(=O)c3ccccc3)nnc-2[nH]1	SRB	10 µM, NCI60 single-dose screen	relative to: untreated	cell growth	100%
CCCC(CCC)C(=O)OCc1cn(-c2c3ccccc3nc3ccccc23)nn1	NCI60 single-dose screen	10 µM		growth percentage	96.4%
Cc1cc(-c2ccccc2)n(-c2nc(-c3ccc(Cl)cc3)c3c(NC(=O)c4ccccc4)nnc-3[nH]2)n1	SRB	10 µM, NCI60 single-dose screen	relative to: untreated	cell growth	102%
Cn1cncc1C1=CN(c2ncnc3[nH]cnc23)CCS1		lung cancer		GI50	27.5 µM
Cc1cc(=O)[nH]c(=O)n1Cc1cn(-c2c3ccccc3nc3ccccc23)nn1	NCI60 single-dose screen	10 µM		growth percentage	94%
Cc1n[nH]c2nc(-c3ccc(Cl)cc3)c3c(NC(=O)c4ccccc4)nnc-3n12	SRB	10 µM, NCI60 single-dose screen	relative to: untreated	cell growth	100%

Repeated from above:
Compound	assay	setting	scale	measurement	value
COc1ccc(OC)c(-c2nc3ccc(-c4nc5ccc(N6CCN(C)CC6)cc5[nH]4)cc3[nH]2)c1	SRB	10 µM, 48 h		growth percent	102%
Cc1n(Cc2ccc3ccccc3c2)c2ccccc2[n+]1Cc1ccc2ccccc2c1.[Br-]	NCI60 five-dose screen			TGI	2.76 µM
